Experimental data collected from several papers.
A part holds a random share of what one study measured.

Sample 1 — method: aptamer microarray, sandwich; form: DNA with 2'F-ANA; sample: in vitro; concentration: 200 nM; with: Cy3 exosite-II aptamer, 400 nM; direction: higher = stronger binding; endpoint: mean fluorescence intensity; oligonucleotide: GGTTGGTGTGGTTGG
Target: Prothrombin, mature alpha-thrombin (F2, Homo sapiens, UniProt P00734)
Setting: whole 15-mer aptamer, many near background
Modification = 2'F-ANA at 2 4 5 8 13 15; result = 53.3 a.u.
Modification = 2'F-ANA at 3 4 6 8; result = 678 a.u.
Modification = 2'F-ANA at 1 2 3 4 5 7 12 13 15; result = 76.2 a.u.
Modification = 2'F-ANA at 1 2 5 7 10 11 12 15; result = 48.5 a.u.
Modification = 2'F-ANA at 7 9 13; result = 401 a.u.
Modification = 2'F-ANA at 3 5 6 8 11 14 15; result = 55.7 a.u.
Modification = 2'F-ANA at 2 3 6 7 8 9 12 14 15; result = 419 a.u.
Modification = 2'F-ANA at 2 4 10 13 15; result = 79.1 a.u.
Modification = 2'F-ANA at 4 5 7 10 14 15; result = 67.3 a.u.
Modification = 2'F-ANA at 5 6 7 10 11; result = 115 a.u.
Modification = 2'F-ANA at 1 3 8 11 12 13 14; result = 114 a.u.
Modification = 2'F-ANA at 3 5 6 9 10 12 14; result = 66.7 a.u.
Modification = 2'F-ANA at 2 3 4 5 7 8 9 10 12 13; result = 53.5 a.u.
Modification = 2'F-ANA at 3 5 6 7 8 9 10 12 14; result = 50.5 a.u.
Modification = 2'F-ANA at 2 9 11 12 13; result = 523 a.u.
Modification = 2'F-ANA at 2 3 4 5 6 8 9 11 12 13; result = 100 a.u.
Modification = 2'F-ANA at 1 2 5 6 7 10 12 13 14 15; result = 48 a.u.
Modification = 2'F-ANA at 2 4 7 14; result = 141 a.u.
Modification = 2'F-ANA at 1 3 5 9 10 12 13 14 15; result = 44.7 a.u.
Modification = 2'F-ANA at 1 6 7 8 9 10 13 14 15; result = 48.1 a.u.
Modification = 2'F-ANA at 2 3 6 7 10 11 12; result = 373 a.u.
Modification = 2'F-ANA at 3 5 6 7 10 11 13 14 15; result = 49.5 a.u.
Modification = 2'F-ANA at 1 2 8 9 10 11 12 14; result = 98.8 a.u.
Modification = 2'F-ANA at 2 4 8 14; result = 132 a.u.
Modification = 2'F-ANA at 1 2 4 6 7 8 11 12 13 15; result = 158 a.u.

Sample 2 — method: RNA Bind-n-Seq; form: RNA; sample: in vitro; concentration: 1 µM; setting: whole 134-nt RNA, ends assumed; with: 150 mM KCl; relative to: input library; direction: higher = stronger binding; endpoint: log2 enrichment
Target: Ras GTPase-activating protein-binding protein 1, C-terminal RGG region (G3BP1, Homo sapiens, UniProt Q13283)
Chain of UniProt Q13283 (whole entry, looked up): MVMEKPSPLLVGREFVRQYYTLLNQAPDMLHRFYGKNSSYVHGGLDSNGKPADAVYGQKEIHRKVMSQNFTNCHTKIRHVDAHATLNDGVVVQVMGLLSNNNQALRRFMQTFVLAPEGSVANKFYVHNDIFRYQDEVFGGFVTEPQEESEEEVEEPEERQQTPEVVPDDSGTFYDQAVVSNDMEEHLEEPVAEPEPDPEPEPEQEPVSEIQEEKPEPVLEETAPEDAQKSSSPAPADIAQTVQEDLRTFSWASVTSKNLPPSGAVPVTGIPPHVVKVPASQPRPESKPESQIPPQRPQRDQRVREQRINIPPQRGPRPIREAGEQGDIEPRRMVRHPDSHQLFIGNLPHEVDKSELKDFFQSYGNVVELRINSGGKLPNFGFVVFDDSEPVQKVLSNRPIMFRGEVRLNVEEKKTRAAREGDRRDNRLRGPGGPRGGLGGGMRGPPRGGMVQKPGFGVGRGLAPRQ
Shared flanks, not repeated: GGGAGUUCUACAGUCCGACGAUC … UGGAAUUCUCGGGUGUCAAGG
Oligonucleotide = GCAGGAAGUAAAAACAAAUGGAAAUGCUUCGGAUCGUGGCAGGGGUGGGGGUUGCUAAGGAAAGGGUGGGAUGGGAGUGGGUAAAGAGUU; result = 2.42
Oligonucleotide = CCUGUGCUACACAUCGUAUGUACCGAAUCGGGGCCCCCCGGCCCCCCGGGGCCCCCCGGGAAAGUAUUAUGUUACGCCGUUCGGAUCUGC; result = -1.45
Oligonucleotide = UUUCCAAGAAGUGCACUGAAAAUGACAUCCGAGUCAUGUUCUCUUCGUUUGGACAGAUUGAAGAAUGCCGGAUAUUGCGGGGACCUGAUG; result = -0.378
Oligonucleotide = UGGCCAUGGUGGCAUGCGGGGAGGAAGAGGUGGCCUCAUGGAUCGUGGUGGUCCCGGUGGAAUGUUCAGAGGUGGCCGUGGUGGAGACAG; result = 2.02
Oligonucleotide = GCAGGAAGUAAAAACAAAUGGAAAUGCUUCGGAUAGUGGCAGGGGUGGGGGUUGCUAAGGAAAGGGUGGGAUGGGAGUGAAAAAAGAGUU; result = 2.01
Oligonucleotide = UCAAGUCCUGUGCUACACAUCGUAUGUACCGAAUCGGUGGAAAAAGGUUUUUGGAAAGUAUUAUGUUACGCCGUUCGGAUCUGCACUUCC; result = -1.18
Oligonucleotide = CACAGACAACACGCACCCACACAGACACAGAGGGAAGGGGUUGGGAUGGGGACAGGGUGCACAGCAGGGCGGGGAAGGACCCCAGCCCCU; result = -1.01
Oligonucleotide = GUCCUGUGCUACACAUCGUAUGUACCGAAUCGGGGAGGGGUUUGGGGAAAAAAAGGGGAAAGUAUUAUGUUACGCCGUUCGGAUCUGCAC; result = 1.16
Oligonucleotide = UGGGAGGUGGAUUUUGUUUAUUUUUUUAGCUCAUUUCCAGGGGUGGGAAUUGUUUUUUAAUAUGUGUCAUGAAUAAAGUUGUUUUUGAAA; result = 3.76
Oligonucleotide = AAGUCCUGUGCUACACAUCGUAUGUACCGAAUCGGGUUUUUUUGGGUUUGGGAGGGAAAGUAUUAUGUUACGCCGUUCGGAUCUGCACUU; result = 0.649

Sample 3 — method: universal PBM; form: double-stranded DNA, one strand shown; sample: in vitro; concentration: not given; direction: higher = stronger binding; endpoint: E-score
Target: Sal-like protein 4, full length isoform B (SALL4, Homo sapiens, UniProt Q9UJQ4-2, residues 1-616)
Setting: 8-mer, flanks averaged, mean of replicates
Oligonucleotide = ATTCAGAC; result = 0.1
Oligonucleotide = CCTATGGC; result = -0.0752
Oligonucleotide = AACACACG; result = 0.0631
Oligonucleotide = ATGTATCG; result = 0.233
Oligonucleotide = AACATCTC; result = 0.108
Oligonucleotide = CAGACCTA; result = -0.0348
Oligonucleotide = ATTAATTG; result = 0.375
Oligonucleotide = ATCGTCTG; result = -0.145
Oligonucleotide = ACTGTGTA; result = 0.0656
Oligonucleotide = ACAATGAC; result = 0.00647
Oligonucleotide = ACTGGTAT; result = 0.021
Oligonucleotide = AAAGCCAC; result = 5e-05
Oligonucleotide = CTATAAAA; result = 0.288
Oligonucleotide = AGGGGCCA; result = -0.386
Oligonucleotide = ATGCGCTC; result = -0.0972
Oligonucleotide = ATCAGTAG; result = -0.0165
Oligonucleotide = ACAGGTGG; result = -0.205
Oligonucleotide = ATCAGAGA; result = 0.116

Sample 4 — method: RNA Bind-n-Seq; form: RNA; sample: in vitro; concentration: 365 nM; relative to: no-protein control; direction: higher = stronger binding; endpoint: RBNS enrichment (R)
Target: RNA binding protein fox-1 homolog 2, RRM domain, GST-SBP tag (RBFOX2, Homo sapiens, UniProt O43251-10, residues 100-194)
Setting: natural RNA segment, single round, ends assumed
Shared flanks, not repeated: GGGAGUUCUACAGUCCGACGAUC … UGGAAUUCUCGGGUGCCAA
Construct (chain): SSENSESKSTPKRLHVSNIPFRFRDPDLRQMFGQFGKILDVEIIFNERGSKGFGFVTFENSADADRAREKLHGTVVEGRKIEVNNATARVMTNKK
Oligonucleotide = AAGGGGGUCAUAGAAACCAGGGCUGAUGGGCACCCCCCAGCCCCUGGGAGCUCUGCUCAUGACCGCUCACAGGGUACCGAGUCUUUGCCUUUUGUGUGUGCGCAUGCUGC; result = 3.44
Oligonucleotide = CCCUGAGGUGCUGCUGCUGGGUCUGUCUUGGCUCUGGGGUGUGCUGGGAGGGUCACCAGGUCCCUUUUCCUUCCUGUGCCCUCUGAAAGCUAAGUGUCUGUGUGGCUGUG; result = 0.575
Oligonucleotide = ACUUGACAGACUUGUGUUUUCUGGUCUGAGCUGCCUCCACAGGUCCCUCCAGCAAGCCUCACUGCACCUCUCCCCUGCUGUUUGUGUUUGGAAUUUUGUCUUCUUUAGCU; result = 3.07
Oligonucleotide = UUAUAAGCUGAAUUUUAUAUGUUACUGUAUAUAGUAUUUAUUUGAUUUUACUUACGCUACCUCUCCAAUGCUGGCUUCAUUUUAAUUGUGUUUUAUAUGCUCAUUUAAAA; result = 0.403
Oligonucleotide = AAGUAGGGUGGGGAAGUGUGGAGGAGGUGACUGGCCUGCCUCAAAUGCAUGUUUUGAGAUGUUUGACCACUUCAGCAACUACGUCAGUGGCUUCAGGAUCGGGUGUACUG; result = 44.1
Oligonucleotide = CUGACACAAAGACGGGAAACCCAGUCGGCCUCUAGUUUUCUGCUGCUCUCAGGCAGCACAUCUUGCAAACAGUUUGGAGAAGGAGGCUGUUUUUGUUGAAUCGAGUUCUC; result = 0.465
Oligonucleotide = CGGUUGUGUUUGGUGCUGACACUCUGAUCCCGAAGCCAGGGAGCCCCAAGGGGCUGCAUGACCCUGGGGUGCCCCACACAGUUCAGCCCUGCCUGGCAGGGACGCCAGUA; result = 8.38
Oligonucleotide = AUUACUUGUACGAUGAAGGAUGCCUUUAAAAAAAAAUCAAAAUAAAUUAAACUGGUAAUGUUGAAUGAUAUGAGGUGAAAUCUUUAAUUUCUGCUUUGAUGUAAGAGAGA; result = 1.06
Oligonucleotide = AGAAGAGAGGACCUUGUUCUCUGUAGUUGGGAAUCCCAACUCUGAAUCUUUACAACAUCCAUCGUCACAAAAGAGUGUUAUACAUUUAAUCCACAGGGCAUAGUUUUCUU; result = 0.486
Oligonucleotide = CUGUUUAGCUUGGGAAGCCAAAAGUGGAUGCCUGUGUUCAUGGGCCUCCCCUGGGAGUUAGUGAUUUGGGGGACCAGCCUCACUGCAGACUCCAGGCUCUGACAGGUAGU; result = 0.461
Oligonucleotide = CUGAUUAGUGGUAGUUAUUUGCUGGGAACUGACAAAGUUCAUCUUGGCAAUGAUUAAACCCAGCUUAGCAACGUGAGAAUUAUUUUUUUUUUUCUAAGAAGAAAAUUCAG; result = 0.53
Oligonucleotide = AACAGUAAAGGCCAUGUGAAGAGAAUUAUUACAUCUUUAUUAACCUCAGCAUUUACUUUGUUUCUUUUGCUUAGGAAAUUGCUCAUAAUCUGGUUAUAAUUUUGGUCCAA; result = 0.357

A few entries again (sample 3):
Oligonucleotide = ATGTATCG; result = 0.233
Oligonucleotide = AACACACG; result = 0.0631
Oligonucleotide = AACATCTC; result = 0.108
Oligonucleotide = ACAATGAC; result = 0.00647
Oligonucleotide = ACTGTGTA; result = 0.0656
Oligonucleotide = ACTGGTAT; result = 0.021
Oligonucleotide = ATCGTCTG; result = -0.145
